# Assay results from different studies.
# Numbers after ± are the reported error.
SMILES,assay,test system,setting,how to read,measurement,result
Cc1cc(C(=O)NC(C)(C)COc2cccc3c2C(N)=NS(=O)(=O)N3)cc(C)n1,,"Sprague-Dawley rat, plasma","oral, 100 mg/kg, vehicle 1% methylcellulose",baseline: female over male,AUC(last) ratio,0.68
CCOC(=O)N1C[C@H](CC(C)C)N[C@H](c2ccc(C(C)=O)cc2)C1,"shake-flask, LC-HRMS",aqueous buffer,"16 h, pH 6.8",,solubility,> 750 µM
Cc1cc(NC2CCc3cc(Cl)ccc3C2)n2nc(C(C)(F)F)nc2n1 (stereo not drawn),,"NSG mouse, whole blood","oral, 10 mg/kg",,AUC(0-t),6.51 µM·h
CCn1cc(C(=O)N2CCOCC2)c(=O)c2cc(NC3Cc4ccccc4C3)cnc21,,"human, fed","oral suspension, 300 mg single dose, arithmetic mean",,AUC(0-inf),13700 ng·h/mL
Cc1c(-c2ccc(N3CCc4cccc(C(=O)Nc5nc6ccccc6s5)c4C3)nc2C(=O)O)cnn1CC12CC3(C)CC(C)(C1)CC(OCCNCC[C@H](O)CO)(C3)C2,,"beagle dog, male, anaesthetised","intravenous infusion, 0.3 mg/kg/min, 15 min",baseline: vehicle,QRS duration change,0 ms
CC(C)c1nc(N(C)S(C)(=O)=O)nc(-c2ccc(F)cc2)c1/C=C/[C@@H](O)C[C@@H](O)CC(=O)O,,cynomolgus monkey hepatocytes,"37 °C, 10% monkey serum",,total uptake clearance,29.9 µL/min/10⁶ cells
c1ccc(-c2ccc([C@@H]3COC[C@@H](C4CC4)N3)cc2)cc1,"shake-flask, LC-HRMS",aqueous buffer,"16 h, pH 6.8",,solubility,> 750 µM
O=c1[nH]c(=O)n([C@@H]2O[C@H](CO)[C@@H](O)[C@@H]2F)cc1CCCCC[18F],,"nude mice, RG2 tumour, spleen","intravenous, dose not given, 2 h",,biodistribution,0.11 ± 0.04 %ID/g
COc1cc(C(=O)N2CCC3(CC2)CC(=O)c2c(cnn2C(C)C)C3)cc(-c2ccc(C(=O)O)cc2)n1,,"human, fasting serum","100 mg once daily, day 13, adjusted geometric mean",baseline: placebo,HDL cholesterol change from baseline,-13.2%
COc1ccc2c(c1)CN(C(=O)CCN1CCC(Cc3ccccc3)CC1)CC[S@@+]2[O-],telemetry,conscious male beagle dogs,"intravenous, 4 mg/kg, 0.5 h",,QRS duration,34 ± 11 ms
Cc1nnc2n1-c1sc(C#Cc3cnn(C)c3)c(Cc3ccccc3)c1COC2,,mouse MDA-MB-231 xenograft,dose not given,,tolerability,not toxic
NC[C@@]1(CC(=O)O)[C@@H]2CC[C@H]3C[C@@H]2[C@@H]1C3,,"human, normal renal function, plasma","oral, 20 mg single dose, geometric mean",,elimination rate constant,0.197 h⁻¹
CN1CCC(CNc2ccc3ncc(-c4cccc(OC(F)(F)F)c4)n3n2)CC1,"immunosuppression signature, BioMAP Diversity PLUS",primary human cell cocultures,,,lowest toxic concentration,3.3 µM
CCOCc1nc(O)c(-c2nnc(Cc3ccc(Cl)cn3)o2)c(O)c1-c1c(OC)cccc1OC,,"anaesthetized rats, plasma","intravenous infusion, 1 µg/kg/min for 15 min, 30 min washout",,plasma concentration,35 ± 1 nM
O=C(N[C@H](Cc1c[nH]c2ccccc12)C(=O)Nc1ccncc1)c1ccc(-c2cc(C(F)(F)F)ccc2F)cc1F,,"Swiss Webster mouse, female, intestine","oral, 50 mg/kg, 2 h, 20% Kolliphor vehicle",,concentration,152000 nM
Cc1cc([C@H]2C[C@H]3[C@@H](CF)SC(N)=N[C@@]3(c3ccc(F)cc3F)CO2)on1,,"129/SVE wild-type mouse, male","subcutaneous, 30 mg/kg, 14 h",,CSF concentration,14 nM
CCCCC[C@H]1CC[C@H](c2ccc(OCC)c(F)c2F)CC1,,"rat, placenta","5000 ng/mL in perfusate, high dose, mixture of 21 LCMs",,placental accumulation,340 ± 466 ng/g
O=C(Nc1nc2cccc(-c3ccc(CN4CCS(=O)(=O)CC4)cc3)n2n1)C1CC1,item: food allergy,human rheumatoid arthritis patients,"oral, 75 mg once daily, 4 weeks, regardless of relatedness",,treatment-emergent adverse events,0%
Cc1cc(NC2CCN(C(=O)OC3CCN(C(=O)/C=C/CN(C)C)C3)CC2)n2ncc(C(C)C)c2n1 (stereo not drawn),"Phase I dose escalation CTCAE v4.0, item: abdominal distension",patients with advanced solid tumours,"dose not given, QD dosing any grade",,patients with adverse event,9%
CCCC1CCC(C2CCC(c3cc(F)c(F)c(F)c3)CC2)CC1 (stereo not drawn),,"rat, placenta","5000 ng/mL in perfusate, high dose, mixture of 21 LCMs",,placental accumulation,262 ± 373 ng/g
Cc1ccc([C@@H]2O[C@H](CO)[C@@H](O)[C@H](O)[C@H]2O)cc1Cc1ccc(-c2ccc(F)cc2)s1,,Japanese type 2 diabetes patients,"400 mg, day 15, 24 h urine collection",baseline: baseline,urinary calcium excretion change,-23.5 mg
C=CC(=O)N1CCC(Oc2cc3c(Nc4ccc(Cl)c(Cl)c4F)ncnc3cc2OC)CC1,,"Sprague-Dawley rat, male, plasma","oral, 2 mg/kg, 1 weeks pretreatment, with: Schisandrin B 20 mg/kg daily pretreatment",,MRT(0-inf),4.56 ± 0.54 h
CCc1cc(C(=O)NC)c2nccc(N3CCc4c(cc(Cn5ccnc5)cc4-c4cn(C)nc4C(F)(F)F)C3=O)c2c1,,Sprague Dawley rats,"oral, 100 mg/kg twice daily, 7 days",,red cell distribution width,12.5 ± 0.47%
CNCCOC12CC3(C)CC(C)(CC(Cn4ncc(-c5ccc(N6CCc7cccc(C(=O)Nc8nc9ccccc9s8)c7C6)nc5C(=O)O)c4C)(C3)C1)C2,,"beagle dog, male, anaesthetised","intravenous bolus, 0.03 mg/kg, 75 min",baseline: baseline,mean arterial pressure change,0%
O=C(O)CCCCCCCCCCCCC(=O)O,,"human, plasma",control,,Cmin,30 ± 2.6 nM
CC(C)(C(=O)N1CCOc2c(C#N)cncc2C1)C(F)F,item: disturbance in attention,human,"oral, 10 mg once daily, 14 days, multiple ascending dose",,subjects with adverse event,0%
NC1(C(=O)N[C@@H](CCO)c2ccc(Cl)cc2)CCN(c2nc[nH]c3nccc2-3)CC1,,metastatic CRPC patients,"320 mg b.i.d., grade 3 to 4, treatment-related, with: enzalutamide 160 mg daily",,incidence of Neutropenia,0%
O=c1[nH]c(=O)n([C@H]2C[C@H](O)[C@@H](CO)O2)cc1CCCC[18F],,"male CD-1 nu/nu mice, RG2 tumour, muscle","intravenous, dose not given, 2 h",,biodistribution,0.35 ± 0.13 %ID/g
CO[C@H]1C[C@@H]2CC[C@@H](C)[C@@](O)(O2)C(=O)C(=O)N2CCCC[C@H]2C(=O)O[C@H]([C@H](C)C[C@@H]2CC[C@@H](O)[C@H](OC)C2)CC(=O)[C@H](C)/C=C(\C)[C@@H](O)[C@@H](OC)C(=O)[C@H](C)C[C@H](C)/C=C/C=C/C=C/1C,,healthy adult horses,"intravenous, 0.06 mg/kg, 48 h",,heart rate,34.3 ± 6.6 beats/min
CNC(=O)c1cc(Oc2ccc(NC(=O)Nc3cc(C(C)(C)C)nn3-c3ccc4ncccc4c3)c(F)c2)ccn1,"item: musculoskeletal disorders, all grades",human patients,"oral, dose not given, medium Cmax subgroup, cycles 1-2",,patients with adverse events,47%
CNCc1ccc(-c2[nH]c3cc(F)cc4c3c2CCNC4=O)cc1,,human patients,"oral, 600 mg twice daily, grade 1",,vomiting incidence,30.8%
COc1cccc(OC)c1-c1cc(C(=O)NC2(C(=O)O)C3CC4CC(C3)CC2C4)nn1-c1ccc(C(=O)N(C)CCCN(C)CCCN(C)C(=O)CN2CCN(CC(=O)[O-])CCN(CC(=O)[O-])CCN(CC(=O)[O-])CC2)cc1C(C)C.[177Lu+3] (stereo not drawn),,"mouse, HT-29 xenograft, muscle",4 h post injection,,tissue uptake,1.6 %ID/g
Cc1cc(Nc2ncnc3ccc(NC4=NC(C)(C)CO4)cc23)ccc1Oc1ccn2ncnc2c1,item: Gout,healthy volunteers,"oral, dose not given, grade 1-2",,drug-related adverse events,3.6%
O=C(O)CCC(=O)O.[2H]C([2H])([2H])Oc1cc(C)c2[nH]ccc2c1CN1CC[C@@H](C2CC2)C[C@H]1c1ccc(C(=O)O)cc1,multiple ascending dose,healthy Chinese subjects,125 mg twice daily,,subjects with increased creatinine TEAE,12.5%
CCC(CC)[C@@H]1COC[C@H](c2ccc(C(C)(C)C)cc2)N1,"shake-flask, LC-HRMS",aqueous buffer,"16 h, pH 6.8",,solubility,< 4 µM
O=C1CC[C@H](N2Cc3cc(N4CCN(CC5CCN(c6ccc([C@@H]7c8ccc(O)cc8CC[C@@H]7c7ccccc7)cc6)CC5)CC4)ccc3C2=O)C(=O)N1,item: Headache,human,"oral, 200 mg, with: dabigatran etexilate 75 mg",,participants with adverse event,4.2%
COc1ncc(-c2nc3c(n2C(C)C)[C@H](c2ccc(Cl)cc2)N(c2cc(Cl)cn(C)c2=O)C3=O)c(OC)n1,,"human patients, plasma","oral, 7.5 mg, low-dose arm, cycle 1 day 8",,median Tmax,4 h
CC/C=C\C/C=C\C/C=C\C/C=C\C/C=C\C/C=C\CCC(=O)O.Cc1cc(/C=C/C#N)cc(C)c1Nc1ccnc(Nc2ccc(C#N)cc2)n1,,water,,,equilibrium solubility,0.54 ± 0.08 µg/mL
COc1ccc([C@@H](O)c2cc(-c3ncnc4cc(N5CCOCC5)ccc34)c(F)cc2Cl)nn1,,locally advanced rectal cancer,"oral, 250 mg, with: capecitabine and radiotherapy",,rectal haemorrhage TEAE,50%
C[C@H]1O[C@@H](O[C@H]2CC[C@@]3(C)[C@@H](CC[C@]4(C)[C@@H]3C=C[C@]35OC[C@@]6(CCC(C)(C)C[C@H]63)[C@@H](O)C[C@]54C)[C@]2(C)CO)[C@H](O)[C@@H](O[C@@H]2O[C@H](CO)[C@@H](O)[C@H](O)[C@H]2O)[C@H]1O,UHPLC-MS/MS,"mouse, plasma","oral, 50 mg/kg, 6 h",,plasma concentration,0.88 ng/mL
O=c1[nH]c(=O)n([C@H]2C[C@H](O)[C@@H](CO)O2)cc1CCCCC[18F],,"male CD-1 nu/nu mice, RG2 tumour, skin","intravenous, dose not given, 2 h",,biodistribution,0.12 ± 0.05 %ID/g
CCO[C@H]1CCN(Cc2c(OC)cc(C)c3[nH]ccc23)[C@H](c2ccc(C(=O)O)cc2)C1,,"PNH patients, active haemolysis","oral, 50 mg, 4 weeks, treatment",,incidence of abdominal discomfort,0%
N#Cc1ccc2c(c1)[C@H]1CCCN(C(=O)c3ccc4[nH]cnc4c3)[C@H]1C2,,human,"360 mg, day 7",baseline: baseline,ACTH level change,1.9 pmol/L
C[C@@H](NC(=O)N1C(=O)[C@H](Cc2ccnc(N)c2)[C@H]1C(=O)O)C1CCCCC1,UPLC-MS/MS,"healthy adult Chinese volunteers, plasma","continuous intravenous infusion, 1.5 mg/kg/h, day 1 of 5-day infusion, geometric mean",,Css,4300 ng/mL
Cn1cc(-c2cn3nccc3c(-c3cnn([C@]4(CC#N)C[C@@H](C#N)C4)c3)n2)cn1,,"healthy humans fed, plasma","30 mg once daily, day 10, geometric mean",,Cmin,6.3 ng/mL
CCOc1c([C@H](C)n2nc(C)c3c(N)ncnc32)cc(Cl)c(F)c1[C@@H]1CNC(=O)C1,item: ΔQTcF ≤ 30 ms,previously treated B-cell malignancy,"oral, 30 mg once daily, overall population",,share of patients,100%
Cc1c([C@@H]2COC[C@H](c3ccc(C(F)(F)F)cc3)N2)cnn1-c1ccccc1,"shake-flask, LC-HRMS",aqueous buffer,"16 h, pH 6.8",,solubility,< 4 µM
CNC(=O)c1ccc(-c2cnc3ncc(Cc4ccc5ncccc5c4)n3n2)cc1F,,"human, plasma","oral, 200 mg, mean",,AUC(0-t),5580 ng·h/mL
Cc1cccc(CNC(=O)c2cn(CCNC(=O)c3ccccc3S)c3cc4c(cc3c2=O)OC(F)(F)O4)n1,,"Sprague-Dawley rat, male, whole blood","intramuscular, 30 mg/kg of parent drug",,MRT(0-inf),14.7 h
COc1cc(Nc2ncc3c(n2)-c2ccc(Cl)cc2C(c2c(F)cccc2OC)=NC3)ccc1C(=O)O,,cancer patients,"oral, dose not given, all grades any attribution, with: pembrolizumab",,patients with abdominal pain,13%
C[C@@H](N)C1CCN(S(=O)(=O)c2cccc3cnccc23)CC1,item: Photophobia,healthy volunteers,"150 mg, fed",,TEAE incidence,0%
CNc1cc[n+](CCNC(=O)c2ccn3c(-c4c(C)noc4C)cnc3c2)cc1.[Cl-],,0.1 M HCl,"initial, pH 1",,total organic impurities,0 % peak area
CCCCC1=NC2(CCCC2)C(=O)N1Cc1ccc(-c2ccccc2S(=O)(=O)Nc2noc(C)c2C)c(COCC)c1,,"healthy adult volunteers, plasma","oral, 200 mg, single dose, fasted, crushed tablet",,Tmax,2.51 h
COC(=O)c1ccccc1-c1c2ccc(=N)cc-2oc2c1ccc1cccc(O)c12.Cl,,12.5 mM aqueous NaOH,"pH 12.1, 10% DMSO",,Stokes shift,149 nm
CCO[C@H]1CCN(Cc2c(OC)cc(C)c3[nH]ccc23)[C@H](c2ccc(C(=O)O)cc2)C1,,"healthy volunteers, plasma","oral, 200 mg single dose, median",,total Cmax,3600 ng/mL
CCN1/C(=C/C(C)=O)Sc2ccc(F)cc21,,cynomolgus monkey,"oral, 100 mg/kg, 1 h post-dose",baseline: pre-dose,heart rate change,124 ± 20.1%
Cc1cc([C@H]2C[C@H]3[C@@H](C)SC(N)=N[C@@]3(c3ccc(F)cc3F)CO2)on1,,"male 129/SVE mouse, CSF","subcutaneous, 50 mg/kg, 3 h",,CSF concentration,546 nM

# A few entries again:
SMILES,assay,test system,setting,how to read,measurement,result
C[C@H]1O[C@@H](O[C@H]2CC[C@@]3(C)[C@@H](CC[C@]4(C)[C@@H]3C=C[C@]35OC[C@@]6(CCC(C)(C)C[C@H]63)[C@@H](O)C[C@]54C)[C@]2(C)CO)[C@H](O)[C@@H](O[C@@H]2O[C@H](CO)[C@@H](O)[C@H](O)[C@H]2O)[C@H]1O,UHPLC-MS/MS,"mouse, plasma","oral, 50 mg/kg, 6 h",,plasma concentration,0.88 ng/mL
O=c1[nH]c(=O)n([C@@H]2O[C@H](CO)[C@@H](O)[C@@H]2F)cc1CCCCC[18F],,"nude mice, RG2 tumour, spleen","intravenous, dose not given, 2 h",,biodistribution,0.11 ± 0.04 %ID/g
Cc1cc([C@H]2C[C@H]3[C@@H](C)SC(N)=N[C@@]3(c3ccc(F)cc3F)CO2)on1,,"male 129/SVE mouse, CSF","subcutaneous, 50 mg/kg, 3 h",,CSF concentration,546 nM
CC(C)(C(=O)N1CCOc2c(C#N)cncc2C1)C(F)F,item: disturbance in attention,human,"oral, 10 mg once daily, 14 days, multiple ascending dose",,subjects with adverse event,0%
Cc1cc(Nc2ncnc3ccc(NC4=NC(C)(C)CO4)cc23)ccc1Oc1ccn2ncnc2c1,item: Gout,healthy volunteers,"oral, dose not given, grade 1-2",,drug-related adverse events,3.6%
COc1cc(C(=O)N2CCC3(CC2)CC(=O)c2c(cnn2C(C)C)C3)cc(-c2ccc(C(=O)O)cc2)n1,,"human, fasting serum","100 mg once daily, day 13, adjusted geometric mean",baseline: placebo,HDL cholesterol change from baseline,-13.2%
